Published values gathered from unrelated publications.

`N[C@@H](CC(=O)N1CCn2c(nnc2C(F)(F)F)C1)Cc1cc(F)c(F)cc1F` gave an AUC of 3210 ng·h/mL (human; dose not given, alone).
The AUC of `O=C(COc1ccc(Cl)cc1)NC12CC(c3nnc([C@H]4C[C@@H](OC(F)(F)F)C4)o3)(C1)C2` is reported as 29.9 µM·h (healthy human volunteers fasted, plasma; oral, 45 mg single dose, geometric mean).
For `COc1cc2nccc(Oc3ccc(NC(=O)C4(C(=O)Nc5ccc(F)cc5)CC4)cc3)c2cc1OC`, the AUC was 24600 ng·h/mL (human metastatic RCC, SD/PR, plasma; oral, dose not given, median).
`Cn1cnc2c(F)c(Nc3ccc(Br)cc3Cl)c(C(=O)NOCCO)cc21` has an AUC of 1880 ng·h/mL (human ESRD on haemodialysis; oral, 50 mg, after dialysis).
With `CCN(CC)CCNC(=O)c1c(C)[nH]c(/C=C2\C(=O)Nc3ccc(F)cc32)c1C` the AUC was 2980 ng·h/mL (human patients, plasma; oral, dose not given, cycle 1 day 1).
The AUC of `Cc1ccc(C(=O)NC2CC2)cc1-n1ncc(C(=O)c2cccc(C#N)c2)c1N` is reported as 24900 ng·h/mL (healthy human; oral, 50 mg single, mean).
`N#Cc1cc(NC(=O)[C@H]2c3ccccc3C(=O)N(CC(F)(F)F)[C@@H]2c2cccnc2)ccc1F` gave an AUC of 27500 ng·h/mL (human, plasma; oral, 1200 mg, median).
`CC#CC(=O)N1CCC[C@H]1c1nc(-c2ccc(C(=O)Nc3ccccn3)cc2)c2c(N)nccn12` gave an AUC of 4680 ng·h/mL (human, plasma; oral, 400 mg single dose).
`C/C(=C\c1csc(C)n1)[C@@H]1C[C@@H]2O[C@]2(C)CCC[C@H](C)[C@H](O)[C@@H](C)C(=O)C(C)(C)[C@@H](O)CC(=O)N1` gave an AUC of 973 ng·h/mL (human patients, plasma; intravenous, 20 mg/m2, cycle 1 day 1, A).
The AUC of `COc1ccc2[nH]c([S@+]([O-])Cc3ncc(C)c(OC)c3C)nc2c1` is reported as 167 ng·h/mL (human, dried blood spots; oral, 10 mg omeprazole, control arm).
The AUC of `Cc1cc(-c2nccc3c2ccn3CC(=O)Nc2ccc(-c3cnccn3)cn2)ccn1` is reported as 3.12 µM·h (human, plasma; oral, 40 mg single dose, geometric mean).
With `C[C@@H](c1ccc2nccn2c1)n1nnc2ncc(-c3cnn(C)c3)nc21` the AUC was 10200 ng·h/mL (human, plasma; oral, 300 mg, cycle 1 day 1, single dose).

Some of these lines once more:
`Cn1cnc2c(F)c(Nc3ccc(Br)cc3Cl)c(C(=O)NOCCO)cc21` has an AUC of 1880 ng·h/mL (human ESRD on haemodialysis; oral, 50 mg, after dialysis).
